Measurements pooled from the literature.
Each numbered part is a random draw from the data of one study; scales do not carry over between parts.

Sample 1
Target: Histone acetyltransferase KAT6A, both winged helices, GST fusion (KAT6A, Homo sapiens, UniProt Q92794, residues 1-181)
Method: protein binding microarray
Molecule type: double-stranded DNA, one strand shown
Matrix: in vitro
Concentration: not given
Setting: 8-mer, flanks averaged, mean of 2 arrays, mostly near background
Relative to: not given
Reading: higher = stronger binding
Construct (chain): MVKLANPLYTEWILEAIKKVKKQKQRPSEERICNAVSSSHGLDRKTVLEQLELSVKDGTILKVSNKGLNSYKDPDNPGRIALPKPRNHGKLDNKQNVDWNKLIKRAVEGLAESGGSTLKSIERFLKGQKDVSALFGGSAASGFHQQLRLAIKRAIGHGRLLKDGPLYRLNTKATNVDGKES
The E-score of `AACCGCAG` is reported as 0.0784.
With `CATTTGAA` the E-score was 0.038.
`CCCTCGCC` gave an E-score of -0.0932.
With `CACGTTCC` the E-score was -0.0465.
`CGGGCGAG` gave an E-score of 0.151.
For `GCGATACC`, the E-score was 0.205.
For `CGCATAGA`, the E-score was 0.0481.
The E-score of `CGGGCAAA` is reported as 0.176.
With `CGAGTAAC` the E-score was 0.0258.
The E-score of `CGCGCATA` is reported as 0.303.
The E-score of `CATATTCC` is reported as -0.0388.
`CGGGTCAC` gave an E-score of 0.194.

Sample 2
Target: Centromere-binding protein 1, full length, His-tagged (CBF1, Saccharomyces cerevisiae, UniProt P17106, residues 1-351)
Chain of UniProt P17106 (whole entry, looked up): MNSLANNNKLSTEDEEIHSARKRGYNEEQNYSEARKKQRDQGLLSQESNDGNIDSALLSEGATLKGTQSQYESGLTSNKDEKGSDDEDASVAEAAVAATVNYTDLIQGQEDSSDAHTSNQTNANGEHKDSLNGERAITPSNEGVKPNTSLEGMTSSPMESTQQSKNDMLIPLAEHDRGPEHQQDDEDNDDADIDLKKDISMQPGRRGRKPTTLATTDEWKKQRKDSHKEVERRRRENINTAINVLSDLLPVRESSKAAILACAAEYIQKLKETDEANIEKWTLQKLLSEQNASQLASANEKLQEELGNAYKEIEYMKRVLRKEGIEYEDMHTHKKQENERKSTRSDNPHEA
Method: competition protein-binding microarray
Molecule type: double-stranded DNA, one strand shown
Matrix: in vitro
Concentration: 2 µM
Setting: whole 60-bp probe, lowest competitor level
Together with: Pho4 competitor, 0.05 µM
Reading: higher = stronger binding
For `AAATTACTAAGTTGTCACAAGACTTACCCCGTATGAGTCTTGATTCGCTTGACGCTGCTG`, the fluorescence intensity was 123 a.u.
`TTAGTAATCTAGAATCACATGGTACCTCTTTCTTCGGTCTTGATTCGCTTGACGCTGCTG` has a fluorescence intensity of 750 a.u.
`CATCATCATCTTCACCACGTGCAAAAAACCTTGTGCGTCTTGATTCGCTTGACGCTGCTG` gave a fluorescence intensity of 1410 a.u.
`TCAAGAAATTTAGCTCGCGTGGCCGAATGGCAACGCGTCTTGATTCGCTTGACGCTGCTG` gave a fluorescence intensity of 72.9 a.u.
`CCGCCGGTCTTTTCTCTCGTGGTGAGTGGTACTTTGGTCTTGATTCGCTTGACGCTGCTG` gave a fluorescence intensity of 76 a.u.
The fluorescence intensity of `CGTCCTAGCGATTGATTTGTGGGTGCCATGAGGAAGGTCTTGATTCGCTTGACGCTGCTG` is reported as 77.5 a.u.

Sample 3
Target: PABPC1L2, full length, GST fusion (mouse, UniProt A0ABA7IW68)
Method: RNAcompete
Molecule type: RNA
Matrix: in vitro
Concentration: 20 nM
Setting: 7-mer, probes averaged, single round
Relative to: mean of 7-mers
Reading: higher = stronger binding
Residues (chain): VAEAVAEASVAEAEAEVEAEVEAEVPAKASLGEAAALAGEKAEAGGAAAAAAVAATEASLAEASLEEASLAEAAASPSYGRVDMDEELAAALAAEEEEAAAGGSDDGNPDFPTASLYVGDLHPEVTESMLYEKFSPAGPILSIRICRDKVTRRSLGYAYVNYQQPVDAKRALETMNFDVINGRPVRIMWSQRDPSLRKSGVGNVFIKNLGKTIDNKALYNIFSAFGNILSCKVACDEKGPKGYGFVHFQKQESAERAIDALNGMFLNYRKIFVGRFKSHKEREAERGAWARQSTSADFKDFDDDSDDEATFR
`CAGUAAA` gave a 7-mer Z-score of 0.996.
`AAGGAAG` has a 7-mer Z-score of 0.247.
With `GUAAAAU` the 7-mer Z-score was 2.45.
`GGGAAAC` gave a 7-mer Z-score of 0.196.
With `UCAGACC` the 7-mer Z-score was -0.0264.

Other studies, line by line
`PhoQ, residues 284 288 289 292 302 303 SNSSNI` gave a fold induction of 2.95 (PhoP, residues 12 14 15 18 19 LQHIR (Escherichia coli, UniProt P23836); Sort-seq, measured: YFP reporter; E. coli; PhoQ-PhoP variant library, together with: 10 µM Mg2+; relative to: high Mg2+ state, higher = stronger signaling).

Excerpt of the above (sample 3):
`AAGGAAG` has a 7-mer Z-score of 0.247.
With `GUAAAAU` the 7-mer Z-score was 2.45.
`GGGAAAC` gave a 7-mer Z-score of 0.196.
